Published values gathered from unrelated publications.
Compare with care: the assays were run in different laboratories.
Target: Acetylcholinesterase (ache, Electrophorus electricus, UniProt O42275)
UniProt O42275, sequence (whole entry, looked up): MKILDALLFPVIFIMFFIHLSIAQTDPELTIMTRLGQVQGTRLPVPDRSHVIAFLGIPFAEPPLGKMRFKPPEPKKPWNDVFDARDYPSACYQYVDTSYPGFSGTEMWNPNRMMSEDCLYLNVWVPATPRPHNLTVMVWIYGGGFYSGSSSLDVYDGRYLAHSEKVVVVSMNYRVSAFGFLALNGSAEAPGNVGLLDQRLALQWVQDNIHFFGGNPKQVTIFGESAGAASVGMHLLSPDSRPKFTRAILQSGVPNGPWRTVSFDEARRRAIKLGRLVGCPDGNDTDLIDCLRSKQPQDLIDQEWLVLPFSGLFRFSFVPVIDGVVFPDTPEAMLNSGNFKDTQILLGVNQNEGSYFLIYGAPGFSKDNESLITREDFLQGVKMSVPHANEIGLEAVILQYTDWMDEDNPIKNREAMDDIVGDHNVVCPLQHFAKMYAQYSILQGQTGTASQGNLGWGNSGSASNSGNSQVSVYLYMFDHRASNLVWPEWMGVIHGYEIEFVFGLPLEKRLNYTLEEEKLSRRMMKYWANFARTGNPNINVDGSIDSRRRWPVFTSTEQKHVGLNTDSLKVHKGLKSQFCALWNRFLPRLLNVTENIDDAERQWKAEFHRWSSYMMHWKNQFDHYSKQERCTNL
Read-out: enzyme activity
Mode: inhibitor
Method: Ellman

| SMILES | conditions | IC50 [nM] |
| --- | --- | --- |
| O=C(O)C(/C=C/c1ccc(Cl)cc1)=N\Nc1nc(-c2ccc(Cl)cc2)cs1 |  | 481 |
| Cc1ccc(S(=O)(=O)Oc2ccc(/C=N/NS(=O)(=O)c3ccc(Cl)cc3)cc2)cc1 |  | 17.3 |
| COc1ccc(-c2csc(NN=C(C=Cc3ccc(Cl)cc3)C(=O)O)n2)cc1 |  | 687 |
| COc1ccc(S(=O)(=O)Oc2ccc(/C=N/NS(=O)(=O)c3cc(Cl)ccc3Cl)cc2)cc1 |  | 34.9 |
| CCCCNC(=O)c1ccc2nc(CC)c(N(C)Cc3ccc(OC)cc3)n2c1 |  | 3360 |
| Cc1ccc(-c2csc(NN=C(C=Cc3c(Cl)cccc3Cl)C(=O)O)n2)cc1 |  | 509 |
| COc1ccc(S(=O)(=O)Oc2ccc(/C=N/NS(=O)(=O)c3ccc(Cl)cc3)cc2)cc1 |  | 24.7 |
| Cc1cc(C)cc(-n2cc(CCS(=O)(=O)N3CCc4ccccc4C3)nn2)c1 |  | 20 |
| Ic1ccccc1/N=N/c1ccc2nc(-c3ccccc3)cc(-c3ccccc3)c2c1 | pH 7.4 | 13100 |
| Cc1ccc(-c2csc(NN=C(C=Cc3ccc(Cl)cc3)C(=O)O)n2)cc1 |  | 875 |
| CCCCN(C)c1c(C)nc2ccc(C(=O)N3CCC[C@@H](C(N)=O)C3)cn12 |  | 4490 |
| Cc1cc(C)cc(-n2cc(CCS(=O)(=O)NCCc3c[nH]c4ccc(Cl)cc34)nn2)c1 |  | 91 |
| O=C(Nc1cccnc1)c1cccc(C2(CNCc3ccc(F)c(F)c3)CC2)c1 |  | 5860 |
| O=S(=O)(N/N=C/c1ccc(OS(=O)(=O)c2cc(Cl)ccc2Cl)cc1)c1cc(Cl)ccc1Cl |  | 10.7 |
| O=C(O)C(/C=C/c1c(Cl)cccc1Cl)=N\Nc1nc(-c2ccccc2)cs1 |  | 944 |
| O=S(=O)(N/N=C/c1ccc(OS(=O)(=O)c2ccc(Br)cc2)cc1)c1cc(Cl)ccc1Cl |  | 42.6 |
| CN1CCN(c2ccc(Nc3cc4[nH]c(-c5cccc(F)c5)cc4cn3)cc2)CC1 |  | 16700 |
| O=S(=O)(CCc1cn(-c2cnc3ccccc3c2)nn1)N1CCc2ccccc2C1 |  | 22 |
| CCCCN(C=O)c1c(CC)nc2ccc(C(=O)N(C)Cc3ccco3)cn12 |  | 12500 |
| CCCCc1nc2ccc(/N=N/c3ccc(Br)cc3)cc2c(-c2ccccc2)c1I | pH 7.4 | 6950 |
| CCN(CC)CCNC(=O)c1ccc(Nc2nccc3[nH]c(-c4cccc(OC)c4F)nc23)cc1 |  | 2780 |
| O=S(=O)(N/N=C/c1ccc(OS(=O)(=O)c2cc(Cl)ccc2Cl)cc1)c1ccc(Cl)cc1 |  | 183 |

A few entries again:
| SMILES | conditions | IC50 [nM] |
| --- | --- | --- |
| Cc1cc(C)cc(-n2cc(CCS(=O)(=O)N3CCc4ccccc4C3)nn2)c1 |  | 20 |
| Cc1ccc(-c2csc(NN=C(C=Cc3c(Cl)cccc3Cl)C(=O)O)n2)cc1 |  | 509 |
| CCCCN(C)c1c(C)nc2ccc(C(=O)N3CCC[C@@H](C(N)=O)C3)cn12 |  | 4490 |
